Measurements gathered from unrelated publications.
Protocols differ between the studies behind these lines. ± marks the error that the study gave.
Chain of UniProt P62258 (whole entry, looked up): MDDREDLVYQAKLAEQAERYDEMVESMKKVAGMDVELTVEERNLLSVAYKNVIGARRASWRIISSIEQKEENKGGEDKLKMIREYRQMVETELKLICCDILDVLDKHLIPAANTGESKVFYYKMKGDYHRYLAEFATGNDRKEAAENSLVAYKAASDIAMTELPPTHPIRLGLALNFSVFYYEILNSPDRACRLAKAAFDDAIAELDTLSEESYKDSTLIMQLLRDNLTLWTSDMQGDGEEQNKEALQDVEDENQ

Compound	target or system	test	test system	setting	scale	endpoint	result
COc1ccc2c3c1O[C@H]1[C@@H](O)CC[C@@]4(O)[C@@H](C2)N(C)CC[C@]314	–	–	–	1 h	–	logP	1.14
COC(=O)[C@@H](NC(=O)c1nn(Cc2ccc(F)cc2)c2ccccc12)C(C)(C)C	–	–	mouse	intraperitoneal, 3 mg/kg, 0.5 h	relative to: brain over plasma	Kp,uu, brain to plasma, unbound partition coefficient	2.95
C[C@H]1CN(c2n[nH]c3nc(N[C@H]4CC[C@H](NS(=O)(=O)CCC(F)(F)F)CC4)ncc23)CCO1	14-3-3 protein epsilon (Homo sapiens, UniProt P62258)	biochemical	–	–	–	IC50	≥ 20 µM
CCCCCCOC(=O)NC(=N)c1ccc(NCc2nc3cc(C(=O)N(CCC(=O)OCC)c4ccccn4)ccc3n2C)cc1	–	item: Influenza	human	oral, 75 mg, alone	–	participants with adverse event	0%
COc1cc2c(Oc3ccc4[nH]c(C)cc4c3F)ccnc2cc1OCC1(N)CC1	–	–	paediatric recurrent refractory sarcoma	10 mg	–	grade 3 influenza-like symptoms	0%
Cc1onc(-c2c(F)cccc2Cl)c1C(=O)N[C@@H]1C(=O)N2[C@@H]1SC(C)(C)[C@@H]2C(=O)O	–	–	human whole blood	concentration not given, 48 h, 4 °C	–	deviation from nominal concentration	-2.3%
OCc1ncc2n1-c1ccc(Cl)cc1C(c1ccccc1F)=NC2	–	–	human, plasma	7.5 mg midazolam, day 12, arithmetic mean, added: amenamevir 400 mg	–	half-life	3.3 h
Cc1ncc2n1-c1ccc(Cl)cc1C(c1ccccc1F)=NC2	–	–	healthy subjects	oral, 2 mg, 1 day, single dose, DDI study part	–	participants with adverse events	41.7%
COc1cc(C)[nH]c(=O)c1CNC(=O)c1c(C)n([C@H](C)C2CCN(CC(F)(F)F)CC2)c2ccccc12	–	–	female CB17 SCID mice, HT-1376 xenograft, plasma	75 mg/kg, day 1	–	AUC(0-t)	59900 ng·h/mL
Cc1ncc2n1-c1ccc(Cl)cc1C(c1ccccc1F)=NC2	–	–	wild-type mice, plasma	intravenous, 0.3 mg/kg, added: 3-day PCN 10 mg/kg	–	AUC(0-90 min)	0.0368 ± 0.00198 µM·h
CCCCCCCCCCC(=O)O[C@H]1CC[C@H]2[C@@H]3CCC4=CC(=O)CC[C@]4(C)[C@H]3CC[C@]12C	–	–	human male serum	500 ng/mL, NaF 200 mg/mL, baseline testosterone 441 ng/dL	–	testosterone level	447 ng/dL
C=C1C[C@H]2[C@@H]3CC[C@H](O[C@@H]4O[C@H](C(=O)O)[C@@H](O)[C@H](O)[C@H]4O)[C@@]3(C)CC[C@@H]2[C@@]2(C)C=CC(=O)C=C12	–	–	postmenopausal women, serum	UGT2B17 and GSTA1 genotypes	–	share of modified total exemestane metabolites	53%
O=C(O)c1cn(Cc2cccc(Cl)c2)c2ccccc12	–	–	F344 rat, male, serum	oral, 150 mg/kg/day, 2 days, group mean	–	aspartate aminotransferase	84 U/L
Cc1ncc2n1-c1ccc(Cl)cc1C(c1ccccc1F)=NC2	–	–	human liver microsomes 0.5 mg/mL	5 µM, 24 h	–	fu,mic	0.735
C#Cc1ccc2c(c1)C(c1ccccn1)=NCc1c(-c3cnco3)ncn1-2.Cl	–	shake flask	50 mM phosphate buffer	24 h, pH 9, 25 °C	–	solubility	959 µg/mL
O=C1c2c(O)c(=O)ccn2N([C@@H]2c3ccccc3SCc3c2ccc(F)c3F)[C@@H]2COCCN12	–	–	BALB/c mice, plasma	oral, 1.5 mg/kg baloxavir marboxil, 1 h	–	plasma concentration	14.3 ng/mL
COc1ccc2c(c1)[C@]13CCCC[C@@H]1[C@H](C2)N(C)CC3	–	–	human, female	30 mg, day 22, added: hop dietary supplement	relative to: day 0	half-life decrease	3.15 h
Cc1ncc2n1-c1ccc(Cl)cc1C(c1ccccc1F)=NC2	–	–	human	oral, pH 7.7	–	oral bioavailability	47%
CCN(CC)C(=O)[C@@H]1C=C2c3cccc4[nH]cc(c34)C[C@H]2N(C)C1	–	item: not feeling at ease	healthy volunteers	dose not given, 0 to 12 h	relative to: placebo, direction not given	List of Complaints score	1
O=C(O)CCC(CP(=O)(O)O)C(=O)O (stereo not drawn)	–	–	rat Wistar male, plasma	intraperitoneal, 100 mg/kg	–	Vd/F	0.44 L/kg
O=C(O)c1cn(Cc2ccc(F)cc2)c2ccccc12	–	glucuronidation	human intestinal microsomes	60 min, 37 °C, added: UDPGA	–	Km	117 ± 35 µM

Some of these lines once more:
Compound	target or system	test	test system	setting	scale	endpoint	result
Cc1ncc2n1-c1ccc(Cl)cc1C(c1ccccc1F)=NC2	–	–	wild-type mice, plasma	intravenous, 0.3 mg/kg, added: 3-day PCN 10 mg/kg	–	AUC(0-90 min)	0.0368 ± 0.00198 µM·h
